Assay results of several laboratories.
Numbered parts are unrelated; each lists some results of a single study. Changes are numbered by the printed parent chain.

Block 1
Target: Sal-like protein 4, full length isoform B (SALL4, Homo sapiens, UniProt Q9UJQ4-2, residues 1-616)
Method: universal PBM
Molecule type: double-stranded DNA, one strand shown
Sample: in vitro
Tested at: not given
Notes: 8-mer, flanks averaged, mean of replicates
Reading: higher = stronger binding
Residues (chain): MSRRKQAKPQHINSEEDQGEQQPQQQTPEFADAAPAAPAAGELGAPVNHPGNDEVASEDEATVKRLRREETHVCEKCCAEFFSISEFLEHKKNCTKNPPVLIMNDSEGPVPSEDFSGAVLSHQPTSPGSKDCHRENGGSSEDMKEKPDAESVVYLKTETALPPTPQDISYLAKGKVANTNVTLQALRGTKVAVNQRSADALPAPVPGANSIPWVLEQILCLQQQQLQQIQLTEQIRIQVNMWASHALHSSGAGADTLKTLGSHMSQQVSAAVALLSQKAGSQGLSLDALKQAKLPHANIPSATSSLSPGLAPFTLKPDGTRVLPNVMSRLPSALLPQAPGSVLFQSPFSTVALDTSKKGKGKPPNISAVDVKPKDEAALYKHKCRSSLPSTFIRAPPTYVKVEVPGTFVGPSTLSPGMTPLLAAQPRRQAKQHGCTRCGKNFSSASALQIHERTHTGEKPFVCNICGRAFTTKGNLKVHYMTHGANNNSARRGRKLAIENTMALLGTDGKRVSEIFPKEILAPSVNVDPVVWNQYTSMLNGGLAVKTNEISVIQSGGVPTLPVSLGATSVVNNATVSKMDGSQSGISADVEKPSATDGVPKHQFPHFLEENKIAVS
Sequence | E-score
AGTGCGTC | -0.168
GACCTGCA | -0.0331
CAAGTCAC | 0.0542
AGTGACGG | -0.143
GAGCATCA | 0.0183
GAAATCGC | -0.119
GAGCATCC | -0.259
CTGGGATA | 0.0958
AATATTCG | 0.364
CATAGACC | 0.0115
CTGGATGC | -0.318
GCTCTGCA | -0.1
GACGCACA | -0.0107
GTCTTTGA | -0.0641
ATAACAAG | 0.309
AACCGTAA | 0.00733
AGGATGCA | -0.229
CCCGCGAA | -0.109
AGTTAGGG | -0.175
ACGAAAAG | 0.166
CGCCTTAC | -0.0223
TCAATAAA | 0.392
TAGACCGA | -0.0301
AAGAACTA | 0.141
AACGTGAG | 0.0585

Block 2
Target: PABPC1L2, full length, GST fusion (mouse, UniProt A0ABA7IW68)
Method: RNAcompete
Molecule type: RNA
Sample: in vitro
Tested at: 20 nM
Notes: 7-mer, probes averaged, single round
Baseline: mean of 7-mers
Reading: higher = stronger binding
Target sequence (chain): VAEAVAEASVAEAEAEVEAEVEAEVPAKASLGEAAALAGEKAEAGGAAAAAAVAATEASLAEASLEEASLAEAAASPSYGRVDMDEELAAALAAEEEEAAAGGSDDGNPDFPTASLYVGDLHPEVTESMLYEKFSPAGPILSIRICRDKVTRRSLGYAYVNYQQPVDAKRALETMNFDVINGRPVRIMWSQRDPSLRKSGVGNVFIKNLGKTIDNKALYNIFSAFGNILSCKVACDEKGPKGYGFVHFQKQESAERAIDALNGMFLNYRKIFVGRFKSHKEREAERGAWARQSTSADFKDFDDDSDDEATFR
Sequence | 7-mer Z-score
UUCCAGC | -0.22
ACAUGUA | 0.0623
AGAUGAC | -0.211
CAGGAAA | 0.653
UGAUCAU | -0.124
GUGCAUA | -0.0464
CUAUUCU | -0.302
CCUAACG | -0.407
GAACAGG | 0.224
ACCCAAA | 0.829
GGUAGAA | 0.389
AGUUUGA | -0.365
CGGCUGC | -0.202

Block 3
Target: ABI1, truncated, D143A, DHFR fusion (Arabidopsis thaliana)
Method: DHFR PCA, deep sequencing
Sample: yeast
Notes: methotrexate growth selection, single substitutions
Together with: (+)-ABA 58 µM
Baseline: wild-type fitted maximum
Reading: higher = stronger binding
Starting sequence: PYL1, truncated, DHFR fusion (Arabidopsis thaliana); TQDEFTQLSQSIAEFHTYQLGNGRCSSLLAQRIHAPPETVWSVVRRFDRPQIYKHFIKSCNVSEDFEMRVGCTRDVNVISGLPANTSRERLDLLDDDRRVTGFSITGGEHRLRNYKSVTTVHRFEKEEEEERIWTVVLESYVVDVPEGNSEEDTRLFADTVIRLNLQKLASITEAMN
Substitution | relative binding score
V76C | 77.8%
N177L | 77.9%
S42V | 46.4%
V62W | 45.2%
V76W | -1.91%
V76G | -5.41%
A84C | 52.5%
R69I | 91.7%
S42F | 44.1%
S80N | 33.8%
E89Q | 13.3%
R90S | 52.7%
K126A | 101%
N22P | 100%
R74E | -3.14%
I172S | 39.2%
S11T | 80%
R90P | -7.6%

Block 4
Target: Histone acetyltransferase KAT6A, winged helix 2, GST fusion (KAT6A, Homo sapiens, UniProt Q92794, residues 85-181)
Method: protein binding microarray
Molecule type: double-stranded DNA, one strand shown
Sample: in vitro
Tested at: not given
Notes: 8-mer, flanks averaged, mean of 2 arrays, mostly near background
Baseline: not given
Reading: higher = stronger binding
Target sequence (chain): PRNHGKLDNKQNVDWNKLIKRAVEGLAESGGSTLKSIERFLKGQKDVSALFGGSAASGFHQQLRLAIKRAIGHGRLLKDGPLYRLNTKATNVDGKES
Sequence | E-score
GACGTATC | -0.133
GGAGCAGA | 0.0573
AACATATC | -0.0123
ATCGTTTC | -0.0684
ACGTGTCT | -0.206
CCTACCCC | -0.0698
CGCCTTGA | 0.0606
ACAGTATC | -0.11
CCGTGTGA | 0.0343
ACGGCAGG | 0.132
AGCCAAAA | 0.136
CAGCTGTC | -0.193
CACAACTG | -0.171
ATGAACAG | -0.0215
AATTCTGG | 0.017
AAAAGCCC | -0.0726
AAGGTATC | 0.0391
CAGTCGGC | 0.0627
AAAACTGC | 0.0979
GACAGCAC | 0.068
CTCTCATC | -0.135
ACCGGTTG | 0.0492
AACATGGC | -0.189
CTGCCGTA | 0.000215
GAGTGACA | 0.163

Block 5
Target: HLF, bZIP domain (human)
Method: DHFR protein complementation
Sample: yeast
Notes: single substitutions, most at no-binding floor
Baseline: wild-type JUN-FOS pair
Reading: higher = stronger binding
Starting sequence: JUN, bZIP domain (human); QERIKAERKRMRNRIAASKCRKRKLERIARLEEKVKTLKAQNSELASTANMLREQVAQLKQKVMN; partner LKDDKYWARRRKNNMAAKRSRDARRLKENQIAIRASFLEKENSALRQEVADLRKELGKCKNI
Substitution | binding fitness
N42C | -1.52 natural log
L45N | -1.5 natural log
E33I | -1.44 natural log
L38T | -1.47 natural log
E54P | -1.54 natural log
E44C | -1.57 natural log
R53A | -1.51 natural log
V35H | -1.56 natural log
E44Q | -1.5 natural log
L45C | -1.47 natural log
A40T | -1.27 natural log
A29D | -1.45 natural log
K34T | -1.23 natural log

Block 6
Target: Protein max, full length (MAX, Homo sapiens, UniProt P61244-2, residues 1-151)
Method: protein-binding microarray
Molecule type: double-stranded DNA, one strand shown
Sample: in vitro
Tested at: not given
Notes: k-mer, scored over probes, only values ≥0.25
Reading: higher = stronger binding
Sequence | E-score
GTGCCGCA | 0.317
GCATGAGC | 0.324
AACGTGCA | 0.434
CCCACGCG | 0.467
AAAATGTG | 0.339
CAATGCGG | 0.29
CCGACACG | 0.295
ACATGATA | 0.271
ACGTGTAG | 0.419
CAAACACG | 0.37
CATGCTCC | 0.399
AGCATATG | 0.331
CCGTCCCA | 0.256
CACGCTGC | 0.453
CGTGCAGA | 0.347
AACGCACG | 0.388

Block 7
Target: CCND1, cyclin fold, Cln2 fusion (human)
Method: yeast growth competition, sequencing
Sample: yeast
Notes: weak parent motif
Baseline: not given
Reading: higher = stronger binding
Starting sequence: FOXM1 docking peptide (human); PHLARPIKVESPP; partner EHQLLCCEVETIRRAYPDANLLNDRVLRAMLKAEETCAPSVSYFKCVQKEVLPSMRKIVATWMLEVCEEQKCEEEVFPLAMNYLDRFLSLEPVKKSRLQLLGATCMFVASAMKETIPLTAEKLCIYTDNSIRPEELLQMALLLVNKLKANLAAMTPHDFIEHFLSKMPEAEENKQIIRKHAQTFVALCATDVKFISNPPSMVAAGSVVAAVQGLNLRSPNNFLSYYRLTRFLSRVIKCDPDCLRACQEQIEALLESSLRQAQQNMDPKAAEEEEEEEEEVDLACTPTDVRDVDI
Substitution | normalised enrichment score
PHAARPIKVESPP [L3A] | 0.447
AHLARPIKVESPP [P1A] | 0.43
PHLARPAKVESPP [I7A] | 0.186
PHLARPIAVESPP [K8A] | 0.279
PALARPIKVESPP [H2A] | 0.539
PHLARPIKVESPA [P13A] | 0.785

Block 8
Target: RNA binding protein fox-1 homolog 2, RRM domain, GST-SBP tag (RBFOX2, Homo sapiens, UniProt O43251-10, residues 100-194)
Method: RNA Bind-n-Seq
Molecule type: RNA
Sample: in vitro
Tested at: 365 nM
Notes: natural RNA segment, single round, ends assumed
Baseline: no-protein control
Reading: higher = stronger binding
Shared flanks, not repeated: GGGAGUUCUACAGUCCGACGAUC … UGGAAUUCUCGGGUGCCAA
Construct (chain): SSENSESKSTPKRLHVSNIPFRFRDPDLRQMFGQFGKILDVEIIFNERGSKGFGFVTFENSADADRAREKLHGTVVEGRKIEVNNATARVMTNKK
Sequence | RBNS enrichment (R)
UUGGAUCAUGGCAGGUGCUUGUUCAAAGCCCUUUCUUGUUGCCUCUGCCAUCUGGGUGAAGUCUAGACCACUUGCUUGGCCUAGGUGUCUUCUGCUCUACCACCCACCCU | 0.345
CUGUAUGUGGUGUCUAACAUCUACAAGGUGGGGGCUGGAGAAGUGGCUUGGUGCUCAAAGGCACUUGCUGCUCUUGCAGAAGGCCAAAAGAUGUGAUUUAGUUCCUAGCC | 0.312
GUGAUAAUGGUUGGAAGGAUGUGGGAUUAUGAAACUGCUUUUGUUUUGUUGGGUUUUUUUUUUUUUGUUUUGUUUUGUUUUUAGAAAACUUGUGAAUGAAAAUGAACCCA | 0.541
GAGAGAAGCCAGAACAAAUUCCGCUGGUUAUAUUUUCUACCUUGUAAACAGGUCAGCACCCCCACUACUCUUUUUAAAAUCACUUUAGUGAUGGAGAUGUCUUGCAAAGA | 2.3
UGGUGACUCCAGCCUCUUUCUCCUGGAGGUCACAAGAUGAUGAUUGCGUAGAUGUUGCCUGGUGCAAAGUGCCCCAAACAGCAAUAGAAAGGCAUAUGUAUAACCAAACU | 0.326
CGAAAGCCCCCUCUUCAACUCCUCUCACUUUUUAAAGCAUUGAUAUUAGUAUCUUCUCAGAUACAGACCGUUUUAUGAUUUUUUAAAAAGUAAAAGUUCUAAAAUGAAGU | 0.47
UUAGCAGGUAGAAAAUUAUUUGUAUUAUAUUCAUCUGAUUCCUAUACUGGAUGAGCAAGGAGCAUGCUUCCUUUGGGACAUUCUUACAGCAGGGUGUCUCUCCAACAGCC | 0.641
AGUUUUAAGAAUAUGAAAUUAAGUUCAGGGCCCCGGAAGCUUCUUGAGCGACAUAGCCAGUCCGCCUCUGGUCAUGGCAGAACUGAUGCUGGACUUUGGUAUCUGAGGCA | 3.05
CAGCUGUUACCACCCUCUCAGCCUGACGAGACUUAGGCUUCUUAAGAUGUCCUUCCAGCUUGUCAGACACUGCCUACCCUCUCCCUGAAUGAGCACUGGCUGAGGCUGUG | 0.266
AACUUUUAUCUAUUCUGAGAAAACAAGCAAGUUCUGAGAGCCAGGGUUUUCCUACGUAGGAUGAAAAGAUUCUUCUGUGUUUAUAAAAUAUAAACAAAGAUUCAUGAUUU | 0.64
AUCCAGAAGAGUAAGAAGAGUAAAUUGUUUCCAUUAUUUUAUCUAAAUAGCAUAAGCAUAUGCUUUUAACUCAUCAUAUUUUUAGUAGUGCUUUUUAGUUUUGUAUAUCA | 0.974
AUUCCAAAAAGACAUGGCAUUCUCCUCAUCAAACUACUUAUUUAUUUCAAAAUAAAACUACCCAUCCUCAUUCAACACUUCCAAUGGGAAAAUUCAGAGAUGAGAUCUUA | 0.815

Further values, each from its own experiment
Molecule | target | test | system | setting | scale | quantity | result
PhoQ, residues 284 288 289 292 302 303 TTSMTC | PhoP, residues 12 14 15 18 19 TTLRV (Escherichia coli, UniProt P23836) | Sort-seq, measured: YFP reporter | E. coli | PhoQ-PhoP variant library, together with: 10 µM Mg2+ | baseline: high Mg2+ state, higher = stronger signaling | fold induction | 2.99

Repeated from above (block 2):
Sequence | 7-mer Z-score
UUCCAGC | -0.22
ACAUGUA | 0.0623
AGAUGAC | -0.211
CAGGAAA | 0.653
UGAUCAU | -0.124
GUGCAUA | -0.0464
CUAUUCU | -0.302
CCUAACG | -0.407
GAACAGG | 0.224
ACCCAAA | 0.829
GGUAGAA | 0.389
AGUUUGA | -0.365
CGGCUGC | -0.202
